Experimental data of several laboratories.
Protocols differ between the studies behind these lines.

Structure (SMILES) | assay | test system | setting | endpoint | value
COc1ccc([C@@H](O)c2cc(-c3ncnc4cc(N5CCOCC5)ccc34)c(F)cc2Cl)nn1 | – | human, plasma | oral, 100 mg, multiple doses, twice daily, patients | Cmax | 693 ng/mL
CC(Nc1nc(-c2ccccn2)nc2ccccc12)c1ccccn1 (stereo not shown) | metabolic stability | mouse, liver microsomes | – | microsomal CLint | 51 µL/min/mg
Cn1nc2c(=O)n(C3CC3)ccc2c1[C@](O)(c1cnc(C(F)(F)F)c(Cl)c1)C1CC1 | metabolic stability | human, hepatocytes | 0.5 µM, pH 7.4 | hepatocyte CLint | 3 µL/min/10⁶ cells
Cc1cc2sc(N)nc2c2cccnc12 | – | female BALB/c mouse, plasma | intraperitoneal, 30 mg/kg, single dose | MRT(0-inf) | 4.89 h
N=C(N)c1ccc(OCCCCCCCCOc2ccc(C(=N)N)cc2)cc1 | haemolysis | sheep | 200 µg/mL, 1 h | haemolysis | 0%
CCn1cnc2c([C@@](O)(CC)c3ccc(C(F)(F)F)nc3)n(C)nc2c1=O | metabolic stability | human, hepatocytes | 0.5 µM, pH 7.4 | hepatocyte CLint | 3.1 µL/min/10⁶ cells
Cc1nc(-c2cnc(NC(C)C)n(C)c2=O)ccc1Oc1ccnc(-c2cnn(C)c2)c1 | – | male beagle dog, plasma | oral, 30 mg/kg | AUC(0-t) | 50800 ng·h/mL
O=c1c(O[C@@H]2O[C@H](CO)[C@H](O)[C@H](O)[C@H]2O)c(-c2ccc(O)c(O)c2)oc2cc(O)cc(O)c12 | – | Caco-2 | 100 µg/mL | efflux ratio | 0.9
N=C(N)c1ccc(OCCCCCCCCCCCOc2ccc(C(=N)N)cc2)cc1 | haemolysis | sheep | 200 µg/mL, 1 h | haemolysis | 8.5%
COc1ccc2c(c1)CN(C(=O)CCN1CCC(Cc3ccccc3)CC1)CC[S@@+]2[O-] | – | male human, plasma | intravenous, 0.6 mg/kg, healthy volunteers | Vd | 52.4 L
N#CC1CCN(c2nc(-c3ccccn3)nc3ccccc23)CC1 | – | PAMPA | 10 µM, 3 h, pH 7.4 | Papp | 22.9 ×10⁻⁶ cm/s
CCn1cc(C2CC2)c2c(Cc3ccc(C(F)(F)F)nc3)n(C)nc2c1=O | – | Caco-2 | – | Papp B→A | 56.4 ×10⁻⁶ cm/s
N=C(N)c1cccc(OCc2cccc(COc3cccc(C(=N)N)c3)c2)c1 | haemolysis | sheep | 200 µg/mL, 1 h | haemolysis | 0.2%
COc1cc(C2C3=C(COC3=O)N(CCO)c3cc4c(cc32)CCC4)cc(OC)c1OC (stereo not shown) | – | female Sprague-Dawley rat, plasma | intraperitoneal, 50 mg/kg | Tmax | 0.25 h
CCOC(=O)[C@@]12C[C@@H]1[C@@H](n1ccc3c(NC)nc(C#Cc4ccc(Cl)s4)nc31)[C@H](O)[C@@H]2O | – | male Sprague-Dawley rat, plasma | intravenous, 0.5 mg/kg, 15 min | concentration | 12.4 ng/mL
CCN1CCN(Cc2ccc(NC(=O)c3ccc(C)c(NC(=O)c4cncc(-c5cccs5)c4)c3)cc2C(F)(F)F)CC1 | – | mouse, plasma | intraperitoneal, 20 mg/kg, single dose | AUC(0-inf) | 2210 ng·h/mL
Cc1nn(C2CC2)c(=O)c2nn(C)c(Cc3ccc(C(F)(F)F)c(C#N)c3)c12 | – | Caco-2 | – | Papp B→A | 76.9 ×10⁻⁶ cm/s
Nc1ccc(C=Cc2ccc([125I])cc2)cc1 | – | Swiss mouse, brain | intravenous, 5 µCi, 1 h | tracer uptake | 2.05 %ID/g
Fc1cccc(F)c1-c1nc(N2CCC(c3ccccn3)C2)c2ccccc2n1 (stereo not shown) | metabolic stability | mouse, liver microsomes | – | microsomal CLint | 548 µL/min/mg
CCc1cc(-c2noc(-c3cc(OC)nc(C4CCCC4)c3)n2)cc(C)c1OC[C@@H](O)CO | – | Wistar rat, plasma | oral, 3 mg/kg, 48 h, single dose | concentration | 32 ng/mL
N=C(N)c1ccc(OCc2ccc(COc3ccc(C(=N)N)cc3)cc2)cc1 | haemolysis | sheep | 200 µg/mL, 1 h | haemolysis | 0.2%
Nc1ccc(-c2nc([C@H]3CCc4cc(-c5cc(Cl)ccc5-n5cnnn5)cc(=O)n43)c(F)[nH]2)c(F)n1 | – | human, plasma | oral, 80 mg, single dose, fed | Cmax | 537 ng/mL

Structure (SMILES) | assay | test system | setting | endpoint | value
COc1cc2c3c(n(CCCN4CCOCC4)c(=O)c2cc1OC)-c1cc2c(cc1C3=O)OCO2 | – | female beagle dog, plasma | intravenous, 100 mg/m², infusion | AUC(0-inf) | 2880 ng·h/mL
O=C(O)c1ccc2nc(-c3cc(Cl)cc(Cl)c3)oc2c1 | – | human, plasma | – | fraction unbound | 0.0011
O=C1CC[C@H](N2Cc3cc(N4CCN(CC5CCN(c6ccc([C@@H]7c8ccc(O)cc8CC[C@@H]7c7ccccc7)cc6)CC5)CC4)ccc3C2=O)C(=O)N1 | equilibrium dialysis | human, liver microsomes | 2.5 µM, 6 h | fraction unbound | 0.098
O=c1c2ccc(OC3CCNCC3)cc2[nH]c2cc(F)cc(Cl)c12 | metabolic stability | mouse, liver microsomes | 1 µM, pH 7.4 | microsomal CLint | 18.8 µL/min/mg
COc1ccccc1-c1nc(N2CCC(c3ccccn3)C2)c2ccccc2n1 (stereo not shown) | metabolic stability | mouse, liver microsomes | – | microsomal CLint | 471 µL/min/mg
N#C[C@@]12C[C@@H]1[C@@H](n1cnc3c(N[C@@H](C4CCC4)C4CC4)nc(I)nc31)[C@H](O)[C@@H]2O | – | male Wistar rat, plasma | oral, 10 mg/kg | AUC(0-t) | 343 ng·h/mL
Cc1c(C(=O)O)ccc2c3n(nc12)[C@@H]1[C@H](C3)N(CC2CC2)[C@@]2(C(=O)Nc3cc(Cl)ccc32)[C@H]1c1cccc(Cl)c1F | – | Caco-2 | – | efflux ratio | 1.2
C=CCn1c(=O)c2cnc(Nc3ccc(N4CCN(C)CC4)cc3)nc2n1-c1ccc2c(n1)[C@@](O)(CC)CC2 | – | human, plasma | – | fraction unbound | 0.344
c1ccc(-c2nc(N3CCCC(c4ccccn4)C3)c3ccccc3n2)nc1 (stereo not shown) | metabolic stability | mouse, liver microsomes | – | microsomal CLint | 522 µL/min/mg
CCn1ccc2c([C@](O)(c3cnc(C(F)(F)F)c(Cl)c3)C3CC3)n(C)nc2c1=O | metabolic stability | human, hepatocytes | 0.5 µM, pH 7.4 | hepatocyte CLint | 3.4 µL/min/10⁶ cells
Fc1cccc(Nc2nc(-c3ccccn3)nc3ccccc23)c1 | – | PAMPA | 10 µM, 3 h, pH 7.4 | Papp | 32.1 ×10⁻⁶ cm/s
O=C(c1ccc(F)cc1)C1CCN(CCn2c(=O)[nH]c3ccccc3c2=O)CC1 | metabolic stability | dog, liver microsomes | 5 min | compound remaining | 96.4%
COCC(=O)N1CCC[C@H](C(=O)NCc2nc(-c3ccc(C)cc3)cs2)C1 | metabolic stability | human, liver microsomes | 0.5 µM | microsomal CLint | 24 µL/min/mg
Fc1ccccc1Nc1nc(-c2ccccn2)nc2ccccc12 | metabolic stability | mouse, liver microsomes | – | microsomal CLint | 196 µL/min/mg
CC(C)(N)COCC(=O)N1CCC[C@H](C(=O)NCc2nc(-c3ccc(C(F)(F)F)cc3)cs2)C1 | – | male Sprague-Dawley rat, plasma | oral, 3 mg/kg | AUC | 0.065 µM·h
Cc1cc(C)c(CNC(=O)c2cc(Cl)c3c(c2C)O[C@@](C)([C@H]2CC[C@H](N(C)C)CC2)O3)c(=O)[nH]1 | – | Caco-2 | 3 µM | Papp B→A | 19.7 ×10⁻⁶ cm/s
COc1cccc(-c2n[nH]c(SCc3ccccn3)n2)c1OC | – | male Sprague-Dawley rat, plasma | oral, 10 mg/kg, 15 min, single dose | concentration | 32500 ng/mL
COCC(=O)N1CCC[C@H](C(=O)NCc2nc(-c3ccccc3)cs2)C1 | metabolic stability | male Sprague-Dawley rat, liver microsomes | 0.5 µM | scaled CLint | 34 mL/min/kg
O=C(COc1ccc(Cl)cc1)NC12CC(c3nnc([C@H]4C[C@@H](OC(F)(F)F)C4)o3)(C1)C2 | – | human, plasma | oral, 100 mg, multiple doses, once daily, steady state, healthy volunteers | AUC | 87.9 µM·h
O=c1c2cc(F)c(Oc3ccc(OC(F)(F)F)cc3)cc2[nH]c2cc(Cl)cc(F)c12 | metabolic stability | mouse, liver microsomes | 1 µM, pH 7.4 | microsomal CLint | 4.66 µL/min/mg
NCc1cc2c(cc1F)C(=O)N(C1CCC(=O)NC1=O)C2 (stereo not shown) | – | male CD-1 mouse, plasma | oral, 10 mg/kg, 10.2 min | concentration | 52.2 ng/mL
